Results collected from several papers.
Compare with care: the assays were run in different laboratories. Several values in a cell are separate wells, animals, samples, runs or records. Numbers after ± are the reported error.
cyp121: Mycocyclosin synthase (cyp121, Mycobacterium tuberculosis, UniProt P9WPP7)

Sequences of proteins named here, by UniProt entry; tags and fusion partners are left off.
UniProt P9WPP7, whole entry: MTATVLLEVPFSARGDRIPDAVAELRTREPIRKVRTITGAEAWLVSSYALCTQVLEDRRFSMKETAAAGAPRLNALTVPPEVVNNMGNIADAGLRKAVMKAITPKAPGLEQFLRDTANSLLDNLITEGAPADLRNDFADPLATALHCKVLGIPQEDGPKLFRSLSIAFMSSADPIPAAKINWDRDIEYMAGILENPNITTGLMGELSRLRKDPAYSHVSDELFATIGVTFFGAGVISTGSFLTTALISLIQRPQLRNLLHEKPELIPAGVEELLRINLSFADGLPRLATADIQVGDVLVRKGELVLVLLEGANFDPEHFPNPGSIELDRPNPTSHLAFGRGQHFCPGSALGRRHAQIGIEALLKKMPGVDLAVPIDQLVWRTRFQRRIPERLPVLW

Structure (SMILES) = CCOc1ccc2cc(-c3nn(C(C)(C)C)c(N)c3C(N)=O)cnc2c1; target or system = MARC145 uninfected; test = XTT; conditions = 5 µM, 72 h; scale = baseline: DMSO; endpoint = cytotoxicity; value = 5.2%
Structure (SMILES) = CCOc1ccc2cc(-c3nn(CC4CCNCC4)c4ncnc(N)c34)ccc2n1; target or system = HepG2; test = cell growth, Alamar Blue; conditions = 48 or 72 h, highest tested 30 µM; endpoint = GI50; value = > 30 µM
Structure (SMILES) = O=C(NC1CCN(c2ncnc3[nH]cnc23)CC1)c1cccc(NS(=O)(=O)c2ccc(Cl)cc2)c1; target or system = A549-ACE2; conditions = 200 µM; endpoint = viability; value = 69.4%
Structure (SMILES) = CNCCNC(=O)c1cc2c([nH]c3ccccc32)c(-c2cc(Cl)c(Cl)c(Cl)c2)n1; target or system = HepG2; test = cytotoxicity; endpoint = CC50; value = 6.59 µM
Structure (SMILES) = O=C(NC1CCN(c2ncnc3[nH]cnc23)CC1)c1cccc(NS(=O)(=O)c2ccc(F)cc2)c1; system = mouse, plasma; conditions = oral, 70 mg/kg; endpoint = Cmax; value = 44.6 ng/mL
Structure (SMILES) = c1cn(Cc2ccc(-c3ccoc3)cc2)cn1; target or system = cyp121; test = binding; endpoint = Kd; value = 32.9 ± 11.1 µM
Structure (SMILES) = CSC[C@H](NC(=O)Cc1ccc(N)cc1)C(=O)N[C@@H](Cc1ccccc1)[C@H](O)C(=O)N1CSC(C)(C)[C@H]1C(=O)N[C@H]1c2ccccc2C[C@H]1O; target or system = human foreskin fibroblasts; test = MTT; conditions = up to 25 µM, 2 days; endpoint = cytotoxicity; value = not toxic
Structure (SMILES) = CC(C)(O)Cn1nc(-c2ccc3nc(OC4CC4)ccc3c2)c2c(N)ncnc21; target or system = HepG2; test = cytotoxicity; endpoint = CC50; value = > 40 µM
Structure (SMILES) = CCOc1c(SSc2cnn(-c3ccccc3)c(=O)c2OCC)cnn(-c2ccccc2)c1=O; target or system = HeLa; endpoint = CC50; value = ~100 µM
Structure (SMILES) = Cc1cccc2c1[nH]c1c(-c3ccc(Cl)c(Cl)c3)nc(C(=O)NCCNCCO)cc12; target or system = HepG2; test = cytotoxicity; endpoint = CC50; value = 9.8 µM and 9.78 µM
Structure (SMILES) = CC(=O)OC1CC[C@H]2C3=C(CC[C@]12C)[C@]1(C)c2c(coc2C3=O)[C@@H](OC(C)=O)[C@@H]2O[C@@H]21 (stereo partly shown); target or system = MDA-MB-231; test = cytotoxicity, SRB; conditions = 72 h; endpoint = EC50; value = 971 nM
Structure (SMILES) = O=C(NCCNCCO)c1cc2c([nH]c3ccccc32)c(-c2ccc(Cl)c(Cl)c2)n1; target or system = HepG2; test = cytotoxicity; endpoint = CC50; value = 7.27 µM
Structure (SMILES) = NC(=O)CCOc1c(SSc2cnn(-c3ccccc3)c(=O)c2OCCC(N)=O)cnn(-c2ccccc2)c1=O; target or system = HeLa; endpoint = CC50; value = > 100 µM
Structure (SMILES) = CCOc1ccc2cc(-c3nn(CC4CCNCC4)c4ncnc(N)c34)ccc2c1; target or system = HepG2; test = cell growth, Alamar Blue; conditions = 48 or 72 h, highest tested 30 µM; endpoint = GI50; value = > 30 µM
Structure (SMILES) = CC(c1ccc2c(c1)[nH]c1ccccc12)n1ccnc1 (stereo not shown); target or system = cyp121; test = binding; endpoint = Kd; value = 8.7 ± 1.3 µM
Structure (SMILES) = COc1cccc(-c2cc(Nc3c(Nc4ccc(C(F)(F)F)cc4)c(=O)c3=O)ccc2OC)c1; target or system = Caco-2; endpoint = efflux ratio; value = 0.152 ± 0.03

For quick reference, copied from above:
Structure (SMILES) = CCOc1ccc2cc(-c3nn(CC4CCNCC4)c4ncnc(N)c34)ccc2n1; target or system = HepG2; test = cell growth, Alamar Blue; conditions = 48 or 72 h, highest tested 30 µM; endpoint = GI50; value = > 30 µM
Structure (SMILES) = NC(=O)CCOc1c(SSc2cnn(-c3ccccc3)c(=O)c2OCCC(N)=O)cnn(-c2ccccc2)c1=O; target or system = HeLa; endpoint = CC50; value = > 100 µM
